Published values pooled from the literature.
Each line is one published result; not all experiments were run side by side.
CDK9 with cyclin T1: Cyclin-dependent kinase 9, with cyclin T1 (CDK9, Homo sapiens, UniProt P50750)
UniProt P50750, sequence (whole entry, looked up): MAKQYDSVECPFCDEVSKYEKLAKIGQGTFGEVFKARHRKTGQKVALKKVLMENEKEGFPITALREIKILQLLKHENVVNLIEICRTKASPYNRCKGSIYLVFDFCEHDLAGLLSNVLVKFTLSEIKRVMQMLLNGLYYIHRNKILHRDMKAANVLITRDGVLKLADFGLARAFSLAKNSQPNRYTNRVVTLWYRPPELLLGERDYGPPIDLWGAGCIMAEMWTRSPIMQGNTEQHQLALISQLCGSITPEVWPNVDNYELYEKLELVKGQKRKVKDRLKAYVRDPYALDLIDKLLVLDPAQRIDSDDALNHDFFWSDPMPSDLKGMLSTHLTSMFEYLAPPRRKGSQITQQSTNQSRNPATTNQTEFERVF
CDK9: Cyclin-dependent kinase 9 (CDK9, Homo sapiens, UniProt P50750)
CDK9 with cyclin K: Cyclin-dependent kinase 9, with cyclin K (CDK9, Homo sapiens, UniProt P50750)

SMILES | target | test | setting | scale | quantity | value
CC(C)[C@H]1NC(=O)C[C@H]2/C=C/CCSSC[C@@H](NC1=O)C(=O)N[C@H](Cc1cccc3ccccc13)C(=O)NCC(=O)O2 | CDK9 with cyclin T1 | enzyme activity, inhibitor | 10 µM |  | inhibition | 5.3%
O=C1NC(=O)c2c1c1cc(F)c[n+]3c1c1c2c2cc(O)ccc2[n]1[Ru-4]312([N]=C=S)[S+]3CC[S+]1CC[S+]2CC3 (stereo not drawn) | CDK9 with cyclin T1 | enzyme activity | 100 nM, human enzyme, with: 10 µM ATP | reference: untreated | remaining activity | 75%
CCOC(=O)[C@@H]1Cc2c(cc([N+](=O)[O-])cc2[N+](=O)[O-])[C@H](O)[C@]12C(=O)Nc1ccc(Br)cc12 | CDK9 | binding, competition with immobilised ligand | 0.1 µM |  | remaining binding | 76%
CS(C)(=O)=Nc1ccc(-c2ccc(-c3nc4cc(O[C@@H]5CO[C@H]6[C@@H]5OC[C@H]6O)[nH]c4cc3F)cc2)cc1 | CDK9 with cyclin T1 | enzyme activity, inhibitor | 10 µM |  | inhibition | 11%
O=C(O)c1ccccc1/C=N/Nc1nc(-c2ccccc2Cl)cs1 | CDK9 with cyclin K | enzyme activity, inhibitor | 1 µM |  | inhibition | -6.64%
CN(C)[C@H]1C[C@@]23CC[C@@]4(O2)C(=CC[C@]2(C)[C@@H](c5ccc6ccncc6c5)CC[C@H]24)C=C3[C@@H](O)[C@@H]1O | CDK9 | ATP probe labelling, inhibitor, KiNativ profiling | 0.1 µM |  | inhibition | -11.7%
CN(/N=C/c1ccccc1C(=O)O)c1nc(-c2ccccc2Cl)cs1 | CDK9 with cyclin K | enzyme activity, inhibitor | 1 µM |  | inhibition | -6.85%
C[C@H](NCc1ccc(-c2ccc(C(F)(F)F)cc2)cc1)C(N)=O | CDK9 | cell-free assay, competition with immobilised ligand | 1 µM |  | inhibition | 0%
Nc1ccc(/C=C/C(=O)N2CCc3c(oc4c(-c5ccc(F)cc5)cc(-c5ccc(C(=O)N6CCC(F)(F)CC6)cn5)cc34)C2)cn1 | CDK9 | binding, competition with immobilised ligand | 1 µM |  | remaining binding | 100%

A few entries again:
SMILES | target | test | setting | scale | quantity | value
CN(/N=C/c1ccccc1C(=O)O)c1nc(-c2ccccc2Cl)cs1 | CDK9 with cyclin K | enzyme activity, inhibitor | 1 µM |  | inhibition | -6.85%
